Assay results of several laboratories.
Compare with care: the assays were run in different laboratories. Numbers after ± are the reported error.

O=P1(NCCCl)NCCCO1 (stereo not drawn)  Cmax (rat, plasma; intravenous, 10 mg/kg CP, added: ketoconazole 0 mg/kg): 184 ± 36.2 ng/mL
CCCCCCCCCCCCC(=O)O.O=C1CCCC2C3CCCN4CCCC(CN12)C34 (stereo not drawn)  standard enthalpy of aggregation (electrical conductivity; water; 313.15 K): -0.511 kcal/mol
CC1N=C(c2ccccc2F)c2cc(Br)ccc2-n2cnc(C(=O)OC3OC(CO)C(O)C(O)C3O)c21 (stereo not drawn)  cumulative excretion (LC-MS/MS; Swiss Webster mouse, female, urine; oral, 750 µg parent drug, 24 to 48 h): 0.3 ± 0.3%
CNC(=O)c1cccc(-c2ccc(O[C@H]3O[C@H](CO)[C@@H](O)[C@H](O)[C@@H]3O)c(C)c2)c1  clearance (rat; oral, 10 mg/kg, 10% cyclodextrin formulation): 98 mL/min/kg
O=C(c1ccc(F)cc1)C1CCN(C2Cc3c(cccc3OCC[18F])CC2O)CC1 (single isomer, unassigned; (-))  tissue uptake (Sprague-Dawley rat, male, kidney; intravenous, dose not given, 120 min): 0.489 ± 0.052 %ID/g
CCCCCCCC(=O)NC[C@H](NC(=O)[C@H](CO)NC(=O)CN)C(=O)N[C@@H](Cc1ccccc1)C(=O)N[C@@H](CC(C)C)C(=O)N[C@@H](CO)C(=O)N1CCC[C@H]1C(=O)N[C@@H](CCC(=O)O)C(=O)N[C@@H](Cc1c[nH]cn1)C(=O)N[C@@H](CCC(N)=O)C(=O)N[C@@H](CCCNC(=N)N)C(=O)N[C@H](C(=O)N[C@@H](CCC(N)=O)C(=O)N[C@H](C(=O)N[C@@H](CCCNC(=N)N)C(=O)N1CCC[C@H]1C(=O)N1CCC[C@H]1C(=O)N[C@@H](Cc1c[nH]cn1)C(=O)N[C@@H](CCCCN)C(=O)N[C@@H](C)C(=O)N1CCC[C@H]1C(=O)N[C@@H](Cc1c[nH]cn1)C(=O)N[C@H](C(=O)N[C@H](C(=O)O)C(C)C)C(C)C)C(C)C)C(C)C  half-life (mouse, plasma; intraperitoneal, 1.2 mg/kg): 20.9 min
CC(C)[C@H](NC(=O)CNC(=O)[C@H](CCC(N)=O)NC(=O)[C@H](C)N)C(=O)O  subjects with adverse events (serious adverse event; human; 20 mg/kg, 3 days, thrice daily dosing): 0%
CCN(CC)c1ccc2c(-c3ccccc3C(=O)OCCC[18F])c3ccc(=[N+](CC)CC)cc-3oc2c1  tracer uptake (rat, bone; 1 h): 0.65 %ID/g
COC(=O)C[C@H](NC(=O)[C@H](C)NC(=O)[C@@H](NC(=O)[C@H](CC(=O)OC)NC(=O)[C@@H](NC(=O)c1ccc2ccccc2n1)C(C)C)C(C)C)C(=O)COc1c(F)cccc1F  core body temperature (rat pups; 1 mg/kg, 48 h): 36.8 ± 0.23 °C
O.[C-]#[O+].[C-]#[O+].[C-]#[O+].[Re+].c1cnc2c(c1)ccc1cccnc12  capacity factor (RP-HPLC C18 column, item: aqua complex; MeCN:water 40:60, 0.1% TFA; isocratic elution): 2.1
N#CC1(c2ccc3c(N)ncnn23)OC(COP(=O)(O)OP(=O)(O)OP(=O)(O)O)C(O)C1O (stereo not drawn)  last detectable time (LC-MS/MS; male CD-1 mice, liver and kidney; oral, 100 mg/kg of remdesivir): ≤ 16 h
CCCCCCCC(=O)OC[C@H](NC(=O)[C@H](CO)NC(=O)CN)C(=O)N[C@@H](Cc1ccccc1)C(=O)N[C@@H](CC(C)C)C(=O)N[C@@H](CO)C(=O)N1CCC[C@H]1C(=O)N[C@@H](CCC(=O)O)C(=O)N[C@@H](Cc1cnc[nH]1)C(=O)N[C@@H](CCC(N)=O)C(=O)N[C@@H](CCCNC(=N)N)C(=O)N[C@H](C(=O)N[C@@H](CCC(N)=O)C(=O)N[C@@H](CCC(N)=O)C(=O)N[C@@H](CCCNC(=N)N)C(=O)N[C@@H](CCCCN)C(=O)N[C@@H](CCC(=O)O)C(=O)N[C@@H](CO)C(=O)N[C@@H](CCCCN)C(=O)N[C@@H](CCCCN)C(=O)N1CCC[C@H]1C(=O)N1CCC[C@H]1C(=O)N[C@@H](C)C(=O)N[C@@H](CCCCN)C(=O)N[C@@H](CC(C)C)C(=O)N[C@@H](CCC(N)=O)C(=O)N1CCC[C@H]1C(=O)N[C@@H](CCCNC(=N)N)C(=O)O)C(C)C  AUC(0-t) (item: desacyl ghrelin; human, plasma; intravenous infusion, 1 µg/kg/h, 210 min): 0.00287 ± 0.0022 µg·h/mL
COc1cc(NC(=O)C(=O)c2c(C)n(Cc3ccc(Cl)cc3)c3ccc(C)cc23)ccn1  AUC(0-inf) (cynomolgus monkey, male, plasma; intravenous, 1 mg/kg): 1.57 µg·h/mL
CC[C@H](C)C(=O)N1CCC(NC(=O)Nc2ccc(OC(F)(F)F)c(F)c2)CC1  subjects with trichomoniasis TEAE (healthy volunteers; oral, 16 mg single dose): 0%
C[C@@H]1CC[C@H]2[C@@H](C)CO[C@@H]3O[C@@]4(C)CC[C@@H]1[C@]32OO4  measured concentration (item: compound; rat, plasma; 800 ng/mL spiked, 24 h, autosampler at 4 °C): 816 ± 43.2 ng/mL
COC(=O)C[C@](O)(CCCC(C)(C)OC(C)=O)C(=O)O[C@@H]1C(OC)=C[C@]23CCCN2CCc2cc4c(cc2[C@H]13)OCO4  concentration (CD1 mouse, esophagus; subcutaneous, 1 mg/kg, 8 h): not detected
CC(=O)N(CCCc1cn(-c2ccc(CN3CCOCC3)cc2)nn1)CCNc1ccnc2cc(Cl)ccc12  CC50 (monkey cells): > 100 µM
COc1ccc(C)cc1NC(=O)OC1CC2CCCC(C1)N2Cc1ccc(CC[18F])cc1 (stereo not drawn)  tissue uptake (BALB/c mice, EMT6 tumour, muscle; 30 min): 2.9 ± 0.68 %ID/g
[11CH3]n1c(=O)n(CCCO)c(=O)c2c1nc(Oc1cccc(OC(F)(F)F)c1)n2Cc1ccc(Cl)cc1  tracer uptake (ex vivo biodistribution; Sprague Dawley rat, fat; 5 min post injection): 0.14 ± 0.05 %ID/g
CCOP(=O)(OCC)OCCCCOC(=O)CC1=C(C)/C(=C/c2ccc([S+](C)[O-])cc2)c2ccc(F)cc21 (stereo not drawn)  Cmax (rat, blood; oral, 50 mg/kg, single): 2 nmol/g
CCCCCCCC/C=C\CCCCCCCCOP(O)(O)=S.N  time to disappearance of toxic signs (mouse; subcutaneous, 25 mg/kg): ≤ 1 h
CC[C@@H]1C[C@]1(NC(=O)[C@@H]1C[C@@]2(CN1C(=O)[C@@H](NC(=O)[C@@H](NC(=O)[C@@H]1CCCCN1C(C)C)C1CCCCC1)C(C)(C)C)C(C)(C)C21CCC1)C(=O)NS(=O)(=O)N1CCCC1  fold increase in AUC(0-inf) (human; oral, 50 mg, added: ritonavir; relative to: without ritonavir): ~43 fold
C[C@@H](O)[C@H](NC(=O)[C@H](CCCCN)NC(=O)[C@H](Cc1c[nH]c2ccccc12)NC(=O)CN)C(=O)N[C@@H](CCCNC(=N)N)C(=O)NC(C)(C)C(=O)N[C@@H](CCCNC(=N)N)C(=O)NC(C)(C)C(=O)N[C@H](C(=O)N[C@@H](CO)C(=O)N[C@@H](Cc1c[nH]cn1)C(=O)N[C@@H](Cc1ccc(O)cc1)C(=O)NCC(=O)O)[C@@H](C)O  alkaline phosphatase (C57BL/6 mouse, blood; intravenous, 50 mg/kg, 10 h): 100 to 214 U/L
CC(C)(C)C(=O)OCOP(=O)(OCOC(=O)C(C)(C)C)C1CCCN(O)C1=O (stereo not drawn)  tolerated dose (nude mice; intravenous, no hemolytic anemia): ≤ 10 mg/kg/day
CN(C)C(CNC(=O)Nc1cc(C(F)(F)F)ccc1N1CCOCC1)c1ccncc1 (stereo not drawn)  serum sodium (mouse, serum; intraperitoneal, 120 mg/kg single dose): 145 mmol/L
CC(C)C[C@H](NC(=O)[C@H](CCCCN)NC(=O)[C@H](CCC(=O)O)NC(=O)[C@H](C)NC(=O)[C@@H](NC(=O)[C@H](CCCCN)NC(=O)[C@H](CC(=O)O)NC(=O)[C@H](Cc1ccc(O)cc1)NC(=O)[C@H](Cc1ccccc1)NC(=O)[C@H](C)NC(=O)[C@H](CCCCN)NC(=O)[C@H](CC(C)C)NC(=O)[C@H](Cc1c[nH]c2ccccc12)NC(=O)[C@@H](N)CC(=O)O)C(C)C)C(=O)N[C@@H](CCCCN)C(=O)N[C@@H](CCC(=O)O)C(=O)N[C@@H](C)C(=O)N[C@@H](Cc1ccccc1)C(=O)N1CCC[C@H]1C(=O)N[C@@H](CC(=O)O)C(=O)N[C@@H](Cc1c[nH]c2ccccc12)C(=O)N[C@@H](C)C(=O)N[C@@H](CCCCN)C(=O)N[C@@H](C)C(=O)N[C@@H](C)C(=O)N[C@@H](Cc1ccc(O)cc1)C(=O)N[C@@H](CC(=O)O)C(=O)N[C@@H](CCCCN)C(=O)N[C@@H](C)C(=O)N[C@@H](C)C(=O)N[C@@H](CCC(=O)O)C(=O)N[C@@H](CCCCN)C(=O)N[C@@H](C)C(=O)N[C@@H](CCCCN)C(=O)N[C@@H](CCC(=O)O)C(=O)N[C@@H](C)C(=O)N[C@@H](C)C(=O)O  AUC(0-inf) (cynomolgus monkey female, plasma; intravenous infusion, 25 mg/kg every other day, day 27): 3790 µg·h/mL
COc1cc2c3c(c4cc(OC)c(OC)cc4c2cc1OC)CN1CCCCC1C3 (stereo not drawn)  CC50 (swine cells; 24 (unit not given)): 43.5 ± 7.4 µM
CCNc1cc2[o+]c3cc(NCC)c(C)cc3c(-c3ccccc3C(=O)OCCOCC[18F])c2cc1C  tissue uptake (rat, thyroid/trachea; 30 min): 1.05 ± 0.34 %ID/g
CC(C)C[C@H](NC(=O)[C@H](Cc1ccc(O)cc1)NC(=O)[C@H](C)NC(=O)[C@@H](NC(=O)[C@H](CC(C)C)NC(=O)[C@H](C)NC(=O)[C@H](C)NC(=O)[C@H](CCCCN)NC(=O)CNC(=O)[C@@H](NC(=O)[C@H](Cc1c[nH]cn1)NC(=O)[C@H](CCCCN)NC(=O)CNC(=O)[C@@H](NC(=O)[C@H](Cc1c[nH]cn1)NC(=O)[C@@H](NC(=O)[C@H](C)NC(=O)[C@H](CCCCN)NC(=O)[C@H](CCCCN)NC(=O)[C@H](Cc1ccccc1)NC(=O)[C@H](Cc1c[nH]c2ccccc12)NC(=O)[C@H](CCCCN)NC(=O)CNC(=O)[C@H](Cc1c[nH]c2ccccc12)NC(=O)[C@@H](N)CCCNC(=N)N)[C@@H](C)O)C(C)C)C(C)C)[C@@H](C)O)C(N)=O  acute toxic concentration (zebrafish embryos; 1 h, 4, 28, 52 hpf): 5 µg/mL
CC(C)C[C@@H](N)C(=O)NCC(=O)N[C@H](C)C(=O)N[C@H](CO)C(=O)N[C@H](Cc1c[nH]c2ccccc12)C(=O)N[C@H](Cc1c[nH]cn1)C(=O)N[C@H](CCCNC(=N)N)C(=O)N1CCC[C@@H]1C(=O)N[C@H](CC(=O)O)C(=O)N[C@H](CCCCN)C(=O)N[C@H](CS)C(=O)N[C@H](CS)C(=O)N[C@H](CC(C)C)C(=O)NCC(=O)N[C@H](Cc1ccc(O)cc1)C(=O)N[C@H](CCC(N)=O)C(=O)N[C@H](CCCCN)C(=O)N[C@H](CCCNC(=N)N)C(=O)N1CCC[C@@H]1C(=O)N[C@H](CC(C)C)C(=O)N1CCC[C@@H]1C(N)=O  measured concentration (LC-MS/MS; rat plasma extract; 25 ng/mL, 4 h, 8 °C, autosampler storage): 21.7 ± 1.1 ng/mL
